# Published values pooled from the literature.
# Parts stem from different laboratories: compare values within a part only. Positions count from the first letter of the parent shown.

# Series 1 — target: UBE2Z UBC core domain (UniProt Q9H832); method: yeast two-hybrid; sample: yeast; setting: mostly zero background; reference: not given; direction: higher = stronger interaction
# B1: NEURL1 RING domain (UniProt O76050); chain VTPGLGQWSDECTICYEHAVDTVIYTCGHMCLCYACGLRLKKALHACCPICRRPIKDIIKT
# B2: TRIM43 RING domain (UniProt Q96BQ3); chain FSHAFQKELTCVICLNYLVDPVTICCGHSFCRPCLCLSWEEAQSPANCPACREPSPKMDFKT
# B3: TRIM5 RING domain (UniProt Q9C035); chain ILVNVKEEVTCPICLELLTQPLSLDCGHSFCQACLTANHKKSMLDKGESSCPVCRISYQPENIRP
# B4: TRIM4 RING domain (UniProt Q9C037); chain EAEDIQEELTCPICLDYFQDPVSIECGHNFCRGCLHRNWAPGGGPFPCPECRHPSAPAALRP
# B5: RNF208 RING domain (UniProt Q9H0X6); chain SSAAAGEPLECPTCGHSYNVTQRRPRVLSCLHSVCEQCLQILYESCPKYKFISCPTCRRETVLFTDYG
# Target sequence (chain): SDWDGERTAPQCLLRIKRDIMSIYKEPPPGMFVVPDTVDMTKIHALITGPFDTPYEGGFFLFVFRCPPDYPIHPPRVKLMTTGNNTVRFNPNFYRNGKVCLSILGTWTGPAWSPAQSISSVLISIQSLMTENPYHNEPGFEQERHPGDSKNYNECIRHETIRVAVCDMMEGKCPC
Molecule,lacZ reporter activity
B1 (NEURL1 RING domain),8730
QVDKAVFHMQSVKCLKCQEQKRAVLPCQHAALCELCAEGSECPICQPGRAHTLQS (UNK RING domain (UniProt Q9C0B0)),0
B2 (TRIM43 RING domain),0
B3 (TRIM5 RING domain),0
MPIRALCTICSDFFDHSRDVAAIHCGHTFHLQCLIQWFETAPSRTCPQCRIQVGKRTIIN (TRAIP RING domain (UniProt Q9BWF2)),0
B4 (TRIM4 RING domain),0
B5 (RNF208 RING domain),0
PAELEVQASECVVCLEREAQMIFLNCGHVCCCQQCCQPLRTCPLCRQDIAQRLRIY (LRSAM1 RING domain (UniProt Q6UWE0)),0

# Series 2 — method: protein-binding microarray; molecule type: double-stranded DNA, one strand shown; sample: in vitro; tested at: 250 nM; setting: 60-bp whole probe; together with: salmon DNA 0.4 mg/ml; reference: random background probes; direction: higher = stronger binding; constant ends, left off below: GCCTAGCAC … GTCTTGATTCGCTTGACGCTGCTG
# Target: Interferon regulatory factor 5, full length, phosphomimetic (IRF5, Homo sapiens, UniProt Q13568-2, residues 1-514, K96S/S451D/S453D/S456D/S462D)
Strand,log fluorescence [z-score]
TCATTTTTCATCATTGCACTGTGCTAG,1.66
TTAGGAATGGACACTGGGTTAGTGCTA,-0.336
GACGCTTTCGGGACTGGAGACGTGCTA,6.29
TTAGATATCGGGTAACGATTAGTGCTA,2.6
TTAGGTTACGGACTGGGTTAGTGCTAG,-0.443
TTATGTATCGGTCTCGGTTAGTGCTAG,7.29
GACGGTTTCAGTTTCGGGACGTGCTAG,7.92
GAAGGTCTCCTTCTCCTGACGTGCTAG,-0.25
GACGGACTGGATATCGGGACGTGCTAG,-0.0296
TCATACATGCATATAGTACTGTGCTAG,0.384
GACGGTTTCGACACTGGGGCCGTGCTA,4.49
TTACGTTTCCTTTTCCTTTAGTGCTAG,2.54
GACGGTATGGGTATCGGGACGTGCTAG,0.587
TTAGGGCTCGGACTGGGTTAGTGCTAG,-0.622
TTAGGTTTCGGCTTTCGGTTAGTGCTA,9.64
CCAAACCTGTGCGCCGTGCCGTGCTAG,-0.427
TTAGCTCTCAGTATCGATTAGTGCTAG,6.58
GACGGATTCGACTTTCGGGACGTGCTA,5.28
GGCGAACTGAGTATCGAGACGTGCTAG,1.4
TTAGAAATGAGTTTCGATTAGTGCTAG,9.65
GACCGACTGCTTATCCTGACGTGCTAG,-0.15
GCCGGTTTCCTTCTCCTGACGTGCTAG,1.14
GACGGTCTCCTAATGCTGACGTGCTAG,-0.228

# Series 3 — target: CCND3, cyclin fold, Cln2 fusion (human); method: yeast growth competition, sequencing; sample: yeast; setting: weak parent motif; reference: not given; direction: higher = stronger binding
# Starting sequence: CDC6 docking peptide (human); TLKGRRLVFDNQL; partner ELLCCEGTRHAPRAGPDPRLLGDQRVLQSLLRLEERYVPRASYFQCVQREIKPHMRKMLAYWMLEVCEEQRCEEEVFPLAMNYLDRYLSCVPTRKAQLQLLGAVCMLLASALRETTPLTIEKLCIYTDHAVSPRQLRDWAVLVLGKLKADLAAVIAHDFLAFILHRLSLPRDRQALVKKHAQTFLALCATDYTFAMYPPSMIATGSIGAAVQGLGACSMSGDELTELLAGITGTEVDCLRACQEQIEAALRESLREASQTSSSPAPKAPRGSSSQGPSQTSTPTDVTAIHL
Change,normalised enrichment score
L2H,0.0507
L2T,0.0343
D10A,0.0595
L13D,0.093
L13I,0.115
V8A,0.14
D10H,0.136
T1L,0.178
N11A,0.206
F9E,0.158
R5Q,-0.00523
L7N,0.126
K3I,0.196

# Series 4 — method: protein binding microarray; molecule type: double-stranded DNA, one strand shown; sample: in vitro; tested at: not given; reference: not given; direction: higher = stronger binding
# Target: Histone acetyltransferase KAT6A, both winged helices, GST fusion (KAT6A, Homo sapiens, UniProt Q92794, residues 1-181)
# Setting: 8-mer, flanks averaged, mean of 2 arrays, mostly near background
# Construct (chain): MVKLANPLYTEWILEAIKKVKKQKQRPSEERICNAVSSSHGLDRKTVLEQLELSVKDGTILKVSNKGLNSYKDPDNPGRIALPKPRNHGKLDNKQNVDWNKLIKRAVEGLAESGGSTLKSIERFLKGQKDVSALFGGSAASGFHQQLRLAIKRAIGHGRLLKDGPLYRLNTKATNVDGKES
Strand,E-score
ACTGCGTC,0.0757
AAGTTAAG,-0.173
GCCTAAAA,-0.115
ATTCGAGC,-0.0912
CCTCAAAC,0.0903
CATCATAG,-0.22
ATGTGACG,-0.128
CTTCGCCA,0.0744
AGTGTTTG,-0.146
AAGCACAT,-0.0143
CGAACAGC,0.133
ATCACTAA,0.0553
TAGGGACA,-0.0533
AGCCTGTG,-0.222
AGTCACTA,-0.104
TCCAGCCA,-0.195

# Series 5 — method: RNA Bind-n-Seq; molecule type: RNA; sample: in vitro; tested at: 365 nM; reference: no-protein control; direction: higher = stronger binding
# Target: RNA binding protein fox-1 homolog 2, RRM domain, GST-SBP tag (RBFOX2, Homo sapiens, UniProt O43251-10, residues 100-194)
# Setting: natural RNA segment, single round, ends assumed
# Constant ends, left off below: GGGAGUUCUACAGUCCGACGAUC … UGGAAUUCUCGGGUGCCAA
# Construct (chain): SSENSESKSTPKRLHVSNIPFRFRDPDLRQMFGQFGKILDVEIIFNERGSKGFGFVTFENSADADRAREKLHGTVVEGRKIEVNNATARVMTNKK
Strand,RBNS enrichment (R)
GGCCAGCUGAGUCCAGGACCCUCUCCAGCCCUAUCCCCAUCAAUAAAACUCUGUUUACAUCCACCGGCCCCUUGACUCUGGGUCAGCUGUUUGUUGGGGGUGAUUGGAAA,0.277
ACUAGCUGUUAUGUUAUGAUUUUAUUCUUUGUGAGUUAAUUAGAAUAAAGUCAUUUUCUUCCAAGGUUGGUUCAUUUAGUCUAUAGUCUCUGGUUAUGAAAUUAGCAUCC,1.21
CACUGGGGCCAGCAGGAGUUGGGAACCCCUCUGAGGUGAUUUGCCUGAGCAUGGGGUUCCGGCUGUCACUCAGGCUCAGAGACCCAGCUGGGCUGGGCUUUGCCUUUCAG,0.813
UUUCAUGUGUUAAGUUGCUUGAGUUACACCUUGUGACCCUUCUCCCAUAACAUGGUGUGAGGACGGACUGGGAGCCGGUACAGACUCCAGUGUUUACAGCCUUGCUUUCC,0.625
ACAUCAUCACAGCAGCCUCCUCACUUGGGUACUACAGUGUGGAAGCUGAGUGCAUAUGGUAUAUUUUAUUCAUUUUUGUAAAGCGUUCUGUUUUGUGUUUACUAAUUGGG,0.674
CCUGCAGUUCAGGCCUGUUUCUGUCAGAGUCAGGAACAUCUCUGAAUUAUGGAACAUUGUCUGUACCUUCUGACUUUAUGUAAGCAGUCCAUUCCAUUGCUUGUUUCUCA,1.94
CCAGUUCCCAAAUCAAUUAUAGGUACCUGUUUAGGAGAGAGGAAGAUUUUACCUCUCAAAGGGUGAGAUUUGAAAUUUACACUAAAAAGACAACUUUACAUUUAAUGCUU,0.286
AGAUUCCUUUCCCUGCCUUCUCCCAUACAUUCCAAAAGGAAGUUCAACAGUAAGCAGCACCUCCAAGACUGUCUCCUUUUGGCCAAUAUCAUAAGAUGGACGCCAUAAUC,0.27
UUAGCUUGAACUACUUUGCAGUAAUUUAUUUGACAGAUCUCUAUUCUAUAAAUGUGUAAUGUGAUGAAGAAAGAGAUCUUUCUUUUUUAAUGAAAACAUUAAUGUGUUAA,1
AUUCAUAGAUUAUUCAGCCUUUGCAGGACUUGGAUUCAGGGUUUUACUCAGUCCCUUUACCUUAGGUGGAAUCUUCUUAAAUUGAAAUUUUUGGUAAGGAAUUCAUUUCA,0.339
AGGGGAGGACUGGGGCUGGAAGUCCAGCACCCAGGGAAGAUCUGUCCUCCUGUUCUUGGGAAGCGUUGCCUGACGGCUUCUCGGCUCUACCCUCACCCUUCUGGCCAGGA,1.62
CCAGCAUACUGCCUCUCUGUCUCCCAAAUCAGAGCUCAAGCCAAAUUCUUCUAUCCUCUUUCCCUCUUGCAUUAACCUUUGCUGAUCCUCAGGGACCACUCCCCCAGCAC,1.35

# For quick reference, copied from above (series 3):
Change,normalised enrichment score
L13I,0.115
V8A,0.14
D10H,0.136
T1L,0.178
N11A,0.206
F9E,0.158
R5Q,-0.00523
L7N,0.126
